Measurements collected from several papers.
Protocols differ between the studies behind these lines. “And” joins repeats or separate records; there may be more than shown. ± marks the error that the study gave.
VCP: Transitional endoplasmic reticulum ATPase (VCP, Homo sapiens, UniProt P55072)
Sequence of UniProt P55072 (whole entry, looked up): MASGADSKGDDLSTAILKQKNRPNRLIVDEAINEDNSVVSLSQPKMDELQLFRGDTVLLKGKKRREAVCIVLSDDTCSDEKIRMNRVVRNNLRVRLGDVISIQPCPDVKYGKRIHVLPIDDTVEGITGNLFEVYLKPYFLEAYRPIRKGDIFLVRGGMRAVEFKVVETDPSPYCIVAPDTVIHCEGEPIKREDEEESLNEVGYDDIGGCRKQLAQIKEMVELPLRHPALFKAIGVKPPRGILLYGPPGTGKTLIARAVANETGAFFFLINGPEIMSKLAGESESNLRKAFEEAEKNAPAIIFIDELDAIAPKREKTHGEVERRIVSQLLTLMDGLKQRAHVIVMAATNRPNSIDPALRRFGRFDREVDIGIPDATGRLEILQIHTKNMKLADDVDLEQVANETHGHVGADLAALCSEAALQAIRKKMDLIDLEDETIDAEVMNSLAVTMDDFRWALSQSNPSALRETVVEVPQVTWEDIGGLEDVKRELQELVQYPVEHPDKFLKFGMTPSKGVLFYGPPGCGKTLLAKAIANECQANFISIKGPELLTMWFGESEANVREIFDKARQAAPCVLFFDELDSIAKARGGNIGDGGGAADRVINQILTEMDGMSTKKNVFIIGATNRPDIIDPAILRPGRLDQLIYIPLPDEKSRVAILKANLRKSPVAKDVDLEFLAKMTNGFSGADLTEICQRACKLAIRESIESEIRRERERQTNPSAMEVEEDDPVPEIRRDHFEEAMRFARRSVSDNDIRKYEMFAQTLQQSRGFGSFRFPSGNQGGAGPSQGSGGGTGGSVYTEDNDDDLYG
17-beta-hydroxysteroid dehydrogenase 13: 17-beta-hydroxysteroid dehydrogenase 13 (Homo sapiens, UniProt Q7Z5P4)
Sequence of UniProt Q7Z5P4 (whole entry, looked up): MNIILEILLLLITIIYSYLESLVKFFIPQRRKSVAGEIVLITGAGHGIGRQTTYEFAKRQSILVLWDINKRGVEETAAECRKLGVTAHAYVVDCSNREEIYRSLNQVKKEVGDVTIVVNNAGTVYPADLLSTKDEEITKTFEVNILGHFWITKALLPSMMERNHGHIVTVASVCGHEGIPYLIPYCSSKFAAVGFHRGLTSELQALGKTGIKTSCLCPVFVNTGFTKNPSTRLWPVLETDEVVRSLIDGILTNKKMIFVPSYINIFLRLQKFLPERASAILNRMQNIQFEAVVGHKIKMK
ABCB1: ATP-dependent translocase ABCB1 (ABCB1, Homo sapiens, UniProt P08183)
Sequence of UniProt P08183 (whole entry, looked up): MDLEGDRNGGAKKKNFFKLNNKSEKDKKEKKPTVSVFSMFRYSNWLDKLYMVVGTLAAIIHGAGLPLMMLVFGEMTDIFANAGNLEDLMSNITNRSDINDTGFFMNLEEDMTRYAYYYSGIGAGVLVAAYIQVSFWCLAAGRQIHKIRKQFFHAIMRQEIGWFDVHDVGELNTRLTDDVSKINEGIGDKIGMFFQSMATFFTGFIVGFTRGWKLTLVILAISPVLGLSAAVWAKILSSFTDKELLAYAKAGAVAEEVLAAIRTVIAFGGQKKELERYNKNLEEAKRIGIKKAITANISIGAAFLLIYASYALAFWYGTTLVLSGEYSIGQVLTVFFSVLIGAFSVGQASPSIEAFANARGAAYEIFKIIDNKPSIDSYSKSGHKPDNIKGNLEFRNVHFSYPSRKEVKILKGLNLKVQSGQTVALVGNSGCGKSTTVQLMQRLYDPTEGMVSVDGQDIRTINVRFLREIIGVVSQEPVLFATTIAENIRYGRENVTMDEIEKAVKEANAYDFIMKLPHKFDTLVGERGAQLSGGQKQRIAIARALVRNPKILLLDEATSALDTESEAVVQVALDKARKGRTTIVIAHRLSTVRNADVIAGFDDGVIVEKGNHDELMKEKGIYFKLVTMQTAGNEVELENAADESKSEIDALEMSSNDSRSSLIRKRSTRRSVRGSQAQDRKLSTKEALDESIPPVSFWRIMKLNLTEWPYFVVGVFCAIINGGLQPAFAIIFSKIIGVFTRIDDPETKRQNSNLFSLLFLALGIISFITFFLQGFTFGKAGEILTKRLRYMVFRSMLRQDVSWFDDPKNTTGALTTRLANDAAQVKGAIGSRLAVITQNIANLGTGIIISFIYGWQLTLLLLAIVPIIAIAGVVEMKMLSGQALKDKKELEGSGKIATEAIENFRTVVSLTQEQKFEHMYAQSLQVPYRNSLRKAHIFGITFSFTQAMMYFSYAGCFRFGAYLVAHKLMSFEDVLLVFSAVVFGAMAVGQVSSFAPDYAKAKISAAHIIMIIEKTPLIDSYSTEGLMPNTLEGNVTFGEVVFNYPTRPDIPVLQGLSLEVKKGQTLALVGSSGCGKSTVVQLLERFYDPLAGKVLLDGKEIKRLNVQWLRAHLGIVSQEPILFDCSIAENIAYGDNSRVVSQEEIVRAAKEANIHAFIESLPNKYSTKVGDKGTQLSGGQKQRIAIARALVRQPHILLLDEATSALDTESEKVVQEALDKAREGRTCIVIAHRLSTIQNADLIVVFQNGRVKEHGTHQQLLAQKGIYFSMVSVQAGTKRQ
IRAK4: Interleukin-1 receptor-associated kinase 4 (IRAK4, Homo sapiens, UniProt Q9NWZ3)
Sequence of UniProt Q9NWZ3 (whole entry, looked up): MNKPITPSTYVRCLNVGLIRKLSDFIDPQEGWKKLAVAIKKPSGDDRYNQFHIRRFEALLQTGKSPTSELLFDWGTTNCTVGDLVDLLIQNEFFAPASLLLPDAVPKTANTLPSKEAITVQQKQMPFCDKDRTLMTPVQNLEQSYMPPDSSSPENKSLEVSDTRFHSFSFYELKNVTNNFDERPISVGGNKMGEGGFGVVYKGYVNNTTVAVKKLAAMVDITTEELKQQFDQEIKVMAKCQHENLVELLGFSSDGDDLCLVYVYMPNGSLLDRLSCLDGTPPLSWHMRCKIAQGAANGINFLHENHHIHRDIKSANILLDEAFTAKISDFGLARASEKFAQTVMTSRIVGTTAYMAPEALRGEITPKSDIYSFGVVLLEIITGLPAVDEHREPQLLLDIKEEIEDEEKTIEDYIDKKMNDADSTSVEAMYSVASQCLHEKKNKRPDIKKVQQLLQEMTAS
Acy3: N-acyl-aromatic-L-amino acid amidohydrolase (carboxylate-forming) (Acy3, Mus musculus, UniProt Q91XE4)
Sequence of UniProt Q91XE4 (whole entry, looked up): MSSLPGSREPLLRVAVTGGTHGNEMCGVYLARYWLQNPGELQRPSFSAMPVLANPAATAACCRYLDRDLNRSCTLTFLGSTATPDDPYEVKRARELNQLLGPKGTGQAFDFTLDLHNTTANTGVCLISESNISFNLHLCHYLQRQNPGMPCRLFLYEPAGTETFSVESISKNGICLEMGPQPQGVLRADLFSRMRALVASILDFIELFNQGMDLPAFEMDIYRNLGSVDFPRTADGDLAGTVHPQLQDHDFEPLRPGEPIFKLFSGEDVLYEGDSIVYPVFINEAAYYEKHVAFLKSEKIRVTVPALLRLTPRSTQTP
Sequence of UniProt P16591 (whole entry, looked up): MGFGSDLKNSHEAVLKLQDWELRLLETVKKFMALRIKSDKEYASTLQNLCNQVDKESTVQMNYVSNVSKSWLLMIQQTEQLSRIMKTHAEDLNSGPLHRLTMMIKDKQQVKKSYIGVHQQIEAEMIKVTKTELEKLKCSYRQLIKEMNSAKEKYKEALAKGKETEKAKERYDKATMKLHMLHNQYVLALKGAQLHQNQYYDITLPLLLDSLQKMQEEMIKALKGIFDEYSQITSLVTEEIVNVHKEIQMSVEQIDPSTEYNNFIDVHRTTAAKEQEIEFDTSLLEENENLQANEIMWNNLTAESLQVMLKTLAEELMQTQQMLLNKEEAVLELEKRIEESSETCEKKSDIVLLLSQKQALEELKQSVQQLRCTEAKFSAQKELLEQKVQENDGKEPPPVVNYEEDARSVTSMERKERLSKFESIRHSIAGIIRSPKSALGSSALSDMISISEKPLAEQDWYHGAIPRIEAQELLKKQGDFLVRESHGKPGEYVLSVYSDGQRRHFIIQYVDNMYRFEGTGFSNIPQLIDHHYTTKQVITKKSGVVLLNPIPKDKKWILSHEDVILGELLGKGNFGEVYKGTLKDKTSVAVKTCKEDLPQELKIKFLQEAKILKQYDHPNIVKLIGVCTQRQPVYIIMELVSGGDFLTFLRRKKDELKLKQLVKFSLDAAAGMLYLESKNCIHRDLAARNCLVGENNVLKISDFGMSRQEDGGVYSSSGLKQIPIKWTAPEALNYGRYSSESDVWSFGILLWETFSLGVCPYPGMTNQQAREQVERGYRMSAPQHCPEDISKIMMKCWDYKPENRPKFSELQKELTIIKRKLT
Sequence of UniProt Q8NE63 (whole entry, looked up): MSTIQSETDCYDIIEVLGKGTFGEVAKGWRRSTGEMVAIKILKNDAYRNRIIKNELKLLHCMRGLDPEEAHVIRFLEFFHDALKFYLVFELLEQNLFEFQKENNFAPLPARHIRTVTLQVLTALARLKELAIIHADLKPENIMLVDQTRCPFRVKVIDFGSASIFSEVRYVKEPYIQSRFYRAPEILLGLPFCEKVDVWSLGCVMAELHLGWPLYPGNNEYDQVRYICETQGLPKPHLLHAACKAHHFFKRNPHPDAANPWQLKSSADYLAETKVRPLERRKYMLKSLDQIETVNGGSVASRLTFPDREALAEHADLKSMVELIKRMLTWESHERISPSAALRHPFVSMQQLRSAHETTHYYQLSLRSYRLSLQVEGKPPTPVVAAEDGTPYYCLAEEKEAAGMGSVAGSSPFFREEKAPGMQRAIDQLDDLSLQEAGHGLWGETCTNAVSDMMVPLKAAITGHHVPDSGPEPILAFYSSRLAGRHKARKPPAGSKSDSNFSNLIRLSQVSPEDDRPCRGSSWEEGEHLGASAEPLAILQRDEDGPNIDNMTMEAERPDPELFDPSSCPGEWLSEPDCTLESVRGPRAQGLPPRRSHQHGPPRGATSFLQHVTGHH
Sequence of UniProt Q96BN8 (whole entry, looked up): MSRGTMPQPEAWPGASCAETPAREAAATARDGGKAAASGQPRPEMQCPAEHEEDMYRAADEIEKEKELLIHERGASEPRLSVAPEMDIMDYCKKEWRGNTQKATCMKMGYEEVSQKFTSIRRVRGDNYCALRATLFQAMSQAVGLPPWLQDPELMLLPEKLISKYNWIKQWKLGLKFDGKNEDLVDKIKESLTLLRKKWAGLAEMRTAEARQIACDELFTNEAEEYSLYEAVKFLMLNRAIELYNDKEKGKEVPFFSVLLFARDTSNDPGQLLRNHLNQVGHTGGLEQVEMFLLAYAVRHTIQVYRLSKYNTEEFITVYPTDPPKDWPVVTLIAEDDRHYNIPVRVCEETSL

SMILES | target | assay | test system | setting | IC50
CC/C(=N\NC(=O)NCc1cccc(O)c1)c1ccc(O)c(C)c1O | Ribosomal protein S6 kinase alpha-5 (RPS6KA5, Homo sapiens, UniProt O75582) | kinase activity, inhibitor |  |  | 3.72 ± 0.1 nM
COc1c(O)c(-c2coc(C)n2)nc(C(=O)O)c1SC | angiotensin-converting enzyme | enzyme activity, inhibitor |  |  | 326 ± 70 nM
N#Cc1nc2c(nc1C#N)-c1ccc(Cl)cc1C2=O | Ubiquitin thioesterase otulin (OTULIN, Homo sapiens, UniProt Q96BN8) | deubiquitinase activity, inhibitor, MALDI-TOF DUB |  | 30 °C, 35 min pre-incubation | 10600 nM
COc1cccc2c(NCc3cncs3)nc(N3CCOc4ccccc43)nc12 | VCP | enzyme activity, inhibitor |  |  | 38000 ± 7000 nM
CC[C@@H]1[C@H](F)C(=O)N[C@@H]1COc1nccc2cc(C(N)=O)c(OC)cc12 | 1-phosphatidylinositol 3-phosphate 5-kinase (PIKFYVE, Homo sapiens, UniProt Q9Y2I7) | ATP-site binding, ActivX kinase profiling | THP-1 cell lysate | PIP5K3 ATP-site probe peptide | > 5000 nM
Clc1ccc(-c2nc(NCc3ccccc3)c3ccccc3n2)c(Cl)c1 | VCP | enzyme activity, inhibitor |  |  | > 30000 nM
Cc1ccc(C(=O)Nc2ccc(S(=O)(=O)O)c3cc(S(=O)(=O)O)cc(S(=O)(=O)O)c23)cc1NC(=O)c1cccc(NC(=O)Nc2cccc(C(=O)Nc3cc(C(=O)Nc4ccc(S(=O)(=O)O)c5cc(S(=O)(=O)O)cc(S(=O)(=O)O)c45)ccc3C)c2)c1 | Electrogenic aspartate/glutamate antiporter SLC25A13, mitochondrial (SLC25A13, Homo sapiens, UniProt Q9UJS0) | aspartate/glutamate exchange | proteoliposomes | 1 min, with: [14C]Asp 1 mM, Glu 20 mM inside | 1370 ± 110 nM
Cc1cc(OC(C)C)ccc1C(=O)C(C)(C)NC(=O)c1sccc1C | mitochondrial complex II-III (succinate-cytochrome c oxidoreductase), Solanum tuberosum | enzyme activity, inhibitor | cv Norin No. 1, potato tuber mitochondrial fraction | 25 °C | > 1 µg/mL
CCCCCN1C[C@H](O)[C@@H](O)[C@H](O)[C@@H]1CO | Beta-glucosidase (GBA2, Homo sapiens, UniProt Q9HCG7) | enzyme activity, inhibitor | cell lysate | with: 4-MU-β-D-glucopyranoside | 10 nM
O=C(O)c1ccc(NS(=O)(=O)c2ccc(Cl)c(Cl)c2)c2ncccc12 | 17-beta-hydroxysteroid dehydrogenase 13 | inhibitor, NAD(P)H-Glo |  | with: β-estradiol | 47 nM
COc1cc(N2CCC(N3CCN(C)CC3)CC2)ccc1Nc1ncc(Cl)c(Nc2ccccc2P(C)(C)=O)n1 | ABCB1 | inhibitor |  |  | 1760 nM
COc1cccc2c(NCc3ccccc3)nc(N3CCN(C(C)=O)c4ccccc43)nc12 | VCP | enzyme activity, inhibitor |  |  | 2700 ± 600 nM
CNC(=O)c1ccccc1Nc1nc(Nc2ccc(CO)cc2)ncc1Cl | IRAK4 |  |  | cell-based | 15.2 ± 1.29 nM
CCOc1ccc(C(C)(CC(=O)O)C(=O)O)cc1 (centres unmarked) | Acy3 |  |  | with: NA-Tyr substrate | ~1 nM and 0.63 nM
Cc1ccc(C(=O)Nc2ccnc(S(N)(=O)=O)c2)c(N2CCCC(F)(F)CC2)n1 | Sodium channel protein type 4 subunit alpha (SCN4A, Homo sapiens, UniProt P35499) | Nav1.4 sodium current, inhibitor, automated patch clamp |  |  | 8370 ± 1430 nM
CC[C@H](C)[C@H](NC(=O)[C@H](CS)NC(=O)[C@H](CCC(=O)O)NC(=O)[C@H](C)NC(=O)[C@@H](NC(=O)[C@@H](N)CCCNC(=N)N)[C@@H](C)CC)C(=O)N[C@@H](CC(C)C)C(=O)NCC(=O)N[C@@H](CCSC)C(=O)O | HLA class I histocompatibility antigen, A alpha chain, allele A*02:03 (Homo sapiens, UniProt P04439) | binding, competitor, radioligand competition |  | two days, room temperature, HLA-A*02:03 | 2170 nM
Clc1ccc(-c2nc(NCc3ccccc3)c3ccccc3n2)cc1 | VCP | enzyme activity, inhibitor |  |  | 5500 ± 1900 nM
CCn1c(-c2nc3ccc(C(=O)N4CCCC(N)C4)cc3n2C)cc2ccccc21 (centres unmarked) | 5-hydroxytryptamine receptor 2C (HTR2C, Homo sapiens, UniProt P28335) | intracellular calcium, antagonist, luminescence |  |  | 20000 nM
CC(C)C[C@H](NC(=O)[C@H](CCc1ccccc1)NC(=O)CN1CCOCC1)C(=O)N[C@@H](Cc1ccccc1)C(=O)N[C@@H](CC(C)C)C(=O)[C@@]1(C)CO1 | Psmb10/Psmb3 (Mus musculus, UniProt O35955+Q9R1P1) | proteasome subunit activity | Ba/F3 BCR-ABL1 p210 | 1 h pulse | 63.3 ± 8.87 nM
Cn1cc2c(C(=O)O)ccc(NS(=O)(=O)c3ccc(OCC4CCC4)c(Cl)c3)c2n1 | 17-beta-hydroxysteroid dehydrogenase 13 | estradiol turnover, inhibitor, LC-MS |  | with: β-estradiol | 280 nM
Oc1c(I)cc(Cl)c2cccnc12 | Acy3 |  |  | with: NA-Tyr substrate | 10100 nM

SMILES | target | assay | test system | setting | IC50
O=C(O)c1ccc(NS(=O)(=O)c2ccc(Cl)c(Cl)c2)cc1F | 17-beta-hydroxysteroid dehydrogenase 13 | inhibitor, NAD(P)H-Glo |  | with: β-estradiol | 140 nM
CNS(=O)(=O)c1ccccc1Nc1nc(Nc2ccc(CO)nc2)ncc1Cl | IRAK4 |  |  | cell-based | 47.2 ± 3.44 nM
C=CC(=O)Nc1cc(Nc2nccc(-c3cn(C)c4ccccc34)n2)c(OC)cc1N(C)CCN(C)C | ABCB1 | basic static model |  | ABCB1 inhibition | no inhibition
O=c1nc(SCc2cc(F)cc(C(F)(F)F)c2)nc(SCc2ccc3sccc3c2)[nH]1 | DNA topoisomerase 2-alpha (TOP2A, Homo sapiens, UniProt P11388) | ATPase activity, inhibitor, competitive ATPase |  | with: 2 mM ATP | 9500 nM
C=C1CCC[C@H]2[C@](C)(CC3=C(O)C(=O)C=C(OC)C3=O)[C@@H](C)CC[C@]12C | Gag-Pol polyprotein, RNase H domain (gag-pol, Human immunodeficiency virus type 1 group M subtype B, UniProt P04585) | RNase H activity, inhibitor |  | 2 h, 37 °C | 51000 ± 2600 nM
Fc1ccc(-c2nc(-c3cccnc3)[nH]c2-c2ccncc2)cc1 | TGF-beta receptor type-2 (TGFBR2, Homo sapiens, UniProt P37173) | inhibitor |  |  | 852 ± 70.2 nM
CC(C)(C)n1nc(-c2ccc3nc(OC4CC4)ccc3c2)c(C(N)=O)c1N | Serine/threonine-protein kinase D3 (PRKD3, Homo sapiens, UniProt O94806) | binding |  |  | 220 nM
C#Cc1cnc(Nc2ccnc(CO)c2)nc1Nc1ccccc1S(C)(=O)=NC#N (centres unmarked) | IRAK4 |  |  | cell-based | 26.8 ± 0.98 nM
C[C@H]1O[C@H](O[C@H]2[C@H](O)[C@@H](O)[C@@H](O[C@H]3[C@H](O)[C@@H](O)C(O)O[C@@H]3CO)O[C@@H]2CO)[C@H](O)[C@@H](O)[C@@H]1N[C@H]1C=C(CO)[C@@H](O)[C@H](O)[C@H]1O (some centres unmarked) | intestinal alpha-glucosidase | enzyme activity, inhibitor |  | 30 min preincubation, pH 7.5, 37 °C, with: p-nitrophenyl alpha-D-glucopyranoside | 303 µg/mL
CS(=O)(=NC#N)c1ccccc1Nc1nc(Nc2ccc(CO)nc2)ncc1Cl (centres unmarked) | IRAK4 |  |  | cell-based | 6.19 ± 1.35 nM
O=C(O)c1ccc(NS(=O)(=O)c2ccc(Cl)c(Cl)c2)cc1 | 17-beta-hydroxysteroid dehydrogenase 13 | estradiol turnover, inhibitor, LC-MS |  | with: β-estradiol | > 80000 nM
COc1cc(C(=O)c2c[nH]c3cc(-c4ccc(C(C)=O)s4)ccc23)cc(OC)c1OC | Tubulin alpha-1B chain/TUBB2B (Bos taurus, UniProt P81947+Q6B856) | tubulin polymerization, inhibitor, turbidimetric |  | with: 10 µM bovine tubulin | > 20000 nM
CN(Cc1ccccc1)c1nc(-c2ccc([N+](=O)[O-])cc2)nc2ccccc12 | VCP | enzyme activity, inhibitor |  |  | 8400 ± 4000 nM
Cc1cnc(-c2ccc(-c3ccc(NC(=O)Nc4c(F)cc(F)cc4F)cc3F)c3c2C(=O)NC3)[nH]1 | Tyrosine-protein kinase Fer (FER, Homo sapiens, UniProt P16591) | enzyme activity, inhibitor, mobility shift |  | with: ATP 1 mM | 33.5 nM
N#Cc1ccc2c(NCc3ccccc3)nc(NCc3ccccc3)nc2c1 | VCP | enzyme activity, inhibitor |  |  | 25000 ± 10000 nM
CN1CCN(c2ccc(Nc3ncc4cc(C#N)c(=O)n(C5CCCC5)c4n3)cc2)CC1 | Homeodomain-interacting protein kinase 4 (HIPK4, Homo sapiens, UniProt Q8NE63) |  |  |  | 1620 nM
Clc1cccc(CNc2nc(-c3ccccc3)nc3ccccc23)c1 | VCP | enzyme activity, inhibitor |  |  | 28000 ± 9000 nM
Cc1cc2c(F)c(Oc3ncnn4cc(OC[C@@H](C)O)c(C)c34)ccc2[nH]1 | ABCB1 | inhibitor |  | 1 h | 44100 nM
CN(Cc1ccccc1)c1nc(-c2cccc([N+](=O)[O-])c2)nc2ccccc12 | VCP | enzyme activity, inhibitor |  |  | 25000 ± 11000 nM
CC(=O)Nc1ccc(Nc2nc(-c3sc(N)nc3C)cs2)cc1 | Protein-lysine 6-oxidase (Homo sapiens, UniProt P28300) | enzyme activity | HEK-293T conditioned media |  | 950 nM

Some of these lines once more:
SMILES | target | assay | test system | setting | IC50
Clc1cccc(CNc2nc(-c3ccccc3)nc3ccccc23)c1 | VCP | enzyme activity, inhibitor |  |  | 28000 ± 9000 nM
Cc1cc2c(F)c(Oc3ncnn4cc(OC[C@@H](C)O)c(C)c34)ccc2[nH]1 | ABCB1 | inhibitor |  | 1 h | 44100 nM
CN(Cc1ccccc1)c1nc(-c2cccc([N+](=O)[O-])c2)nc2ccccc12 | VCP | enzyme activity, inhibitor |  |  | 25000 ± 11000 nM
CC(=O)Nc1ccc(Nc2nc(-c3sc(N)nc3C)cs2)cc1 | Protein-lysine 6-oxidase (Homo sapiens, UniProt P28300) | enzyme activity | HEK-293T conditioned media |  | 950 nM
